Measurements from different studies.
A part holds a random share of what one study measured.

Set 1 — technique: protein-binding microarray; form: double-stranded DNA, one strand shown; medium: in vitro; concentration: 250 nM; setting: 60-bp whole probe; added: salmon DNA 0.4 mg/ml; baseline: random background probes; reading: higher = stronger binding; endpoint: log fluorescence; all sequences stand within: GCCTAGCAC … GTCTTGATTCGCTTGACGCTGCTG
Target: Interferon regulatory factor 7, full length, phosphomimetic (IRF7, Homo sapiens, UniProt Q92985, residues 1-503, S101K/S471D/S472D/S475D/S476D/S477D/S483D/S484D/S487D)
Construct (chain): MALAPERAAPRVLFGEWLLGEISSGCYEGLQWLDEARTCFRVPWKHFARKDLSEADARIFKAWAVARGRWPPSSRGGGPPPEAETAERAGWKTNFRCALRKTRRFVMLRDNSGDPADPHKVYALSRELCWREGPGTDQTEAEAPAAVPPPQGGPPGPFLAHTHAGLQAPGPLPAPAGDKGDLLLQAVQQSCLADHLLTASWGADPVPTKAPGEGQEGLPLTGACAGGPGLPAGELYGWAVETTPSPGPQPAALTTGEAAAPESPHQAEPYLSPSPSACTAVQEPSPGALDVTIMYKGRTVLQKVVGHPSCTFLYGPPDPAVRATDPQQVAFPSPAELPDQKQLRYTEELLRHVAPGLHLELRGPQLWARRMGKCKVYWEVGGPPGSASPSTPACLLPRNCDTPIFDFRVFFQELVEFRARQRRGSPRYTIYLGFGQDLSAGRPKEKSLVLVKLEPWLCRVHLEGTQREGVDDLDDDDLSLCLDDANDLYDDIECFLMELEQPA
ACCATTTTGTTTTTCATTATGTGCTAG: 1.58 z-score
TCATATCACTATTCTAGGACTGTGCTA: 0.691 z-score
TTAGCTCTCGGTTTCGGTTAGTGCTAG: 7.85 z-score
GACGGTATCGGTTTCTGGACGTGCTAG: 5.61 z-score
AGTGTTATAATATTATTGCAGTGCTAG: -0.115 z-score
TTAGGTTTCCTACTGCCTTAGTGCTAG: 1.06 z-score
GACGGTTTGGGGACTGGGGACGTGCTA: -0.342 z-score
TTAGGTACCCTTATCCTTTAGTGCTAG: 0.677 z-score
TTAGAACGGGGGTATCGATTAGTGCTA: 1.57 z-score
TTAGGTCTCGGTATCGGTAAGTGCTAG: 2.58 z-score
TTAGGTACCCTACTGCTTTAGTGCTAG: -0.114 z-score
GACGATCTCAGCATCGAGACGTGCTAG: -0.149 z-score
TAATATATATATTGTTAGTGTGTGCTA: 0.378 z-score
CATCCAGCAGAGAGCCTCAGGTGCTAG: -0.343 z-score
GACGGTTCCCTTTTCCAGACGTGCTAG: 2.91 z-score
AAACTAGTGTTTTTCTCCTAGTGCTAG: -0.202 z-score
CCTTTTTTTTTTTTTCTGATGTGCTAG: 1.32 z-score
GACGGACTGGAGTATCGGGACGTGCTA: -0.456 z-score
TCATTATCCTATATCTGACTGTGCTAG: 1.38 z-score
GACGGTTTCGGTCTCGAGACGTGCTAG: 7.84 z-score
GACGGACTGGACTTTGGGGACGTGCTA: -0.771 z-score
GACGATTCCAGTTGCGAGACGTGCTAG: 0.274 z-score
TTAGGTCTCCTTATCGTTTAGTGCTAG: 0.499 z-score
GACGGTTTCCTTCCCCTGACGTGCTAG: 1.93 z-score
CTAAAAATCCCATTAAATTTGTGCTAG: 0.483 z-score

Set 2 — technique: RNA Bind-n-Seq; form: RNA; medium: in vitro; concentration: 20 nM; setting: 6-mer, flanks averaged, single round; added: 150 mM KCl; baseline: input library; reading: higher = stronger binding; endpoint: 6-mer enrichment (R)
Target: TAR DNA-binding protein 43, full length, His tag (TARDBP, Homo sapiens, UniProt Q13148, residues 1-414)
CCCAUU: 0.651
CUGAAG: 0.852
UAGGAC: 0.814
AUCUUA: 0.547
AGACGC: 0.851
GCGUGA: 1.56
GAGAAC: 0.917
GACACC: 0.882
AUUACA: 0.603
CAAUUG: 0.667
CGAGGG: 4.02
GGAAUA: 0.926
UAUUGG: 0.876
AGACUC: 0.614
ACUAAG: 0.718
CAAUAA: 1.01
AUUCCA: 0.582
CUACUU: 0.574
ACAUAC: 0.598

Set 3 — technique: RNA Bind-n-Seq; form: RNA; medium: in vitro; concentration: 200 nM; setting: whole 134-nt RNA, ends assumed; added: 150 mM LiCl; baseline: input library; reading: higher = stronger binding; endpoint: log2 enrichment; each molecule: 7-deaza-guanosine replaces G
Target: Fragile X messenger ribonucleoprotein 1, C-terminal low-complexity region (Fmr1, Mus musculus, UniProt P35922)
All sequences stand within: GGGAGUUCUACAGUCCGACGAUC … UGGAAUUCUCGGGUGUCAAGG
ACCAUGCAGGUGGGCAUCUUUGUGAAGUGGGGCAAGGGGGGGAUAGGGAGGGGGGUAACACUUUGGGAACAGGUGGUCCCAGGUCGUUUC: 1.21
UUUGCAGGAUUAAUCACUCCUGAAGAUCGGAAAUAUGGAACAACAAAUCUUCACUUAGAUGUAUCUGAUGCAGCUAAUGUCAUGGUCUAU: -2.67
GCAGGAAGUAAAAACAAAUGGAAAUGCUUCGGAUAGAAACAGGGGUGGGGGUUGCUAAGGAAAGGGUGGGAUGGGAGUGGGUAAAGAGUU: 1.58
CCUGUGCUACACAUCGUAUGUACCGAAUCGGGCCCCCCGGCCCCCCGGGGCCCCCCGGGGAAAGUAUUAUGUUACGCCGUUCGGAUCUGC: -1.06
CACGGACAACACGCACCCACACAGACACAGAGGGAAGGGGUUGGGAUGGGGACAGGGUGCACAGCAGGGCGGGGUAGGACCCCAGCCCCU: 1.31
GUCCUGUGCUACACAUCGUAUGUACCGAAUCGGAAAAAGGAAAAAAAGGAAAAAAAGGAAAGUAUUAUGUUACGCCGUUCGGAUCUGCAC: -0.467
CACAGACAACACGCACCCACACAGACACAGAGGGAAGGGGUUGGGAUGGGGACAGGGUGCACAGCAGGGCGAGGUAGGACCCCAGCCCCU: 0.232
CAAGUCCUGUGCUACACAUCGUAUGUACCGAAUCGGGGCCCGGCCCGGGGCCCGGAAAGUAUUAUGUUACGCCGUUCGGAUCUGCACUUC: -1.26
UAACUUUAGAGGAGGAUCUGAUGGAUGUGGCAGUGGACGUGGAUUUGGGGAUGGCUAUAAUGGGUAUGGAGGAGGACCUGGAGGUGGCAA: 0.818
UGCCUCGGGAGGAGCUGUUUGUGACAUCCAAGCUGUGGAACACCAAGCACCACCCCGAGGAUGUGGAGCCUGCCCUCCGGAAGACUCUGG: -1.22
UGUGCUACACAUCGUAUGUACCGAAUCGGGGUUUUUUUGGGUUUUUUUGGGGUUUUUUUGGGGAAAGUAUUAUGUUACGCCGUUCGGAUC: 2.1

Set 4 — technique: RNA Bind-n-Seq; form: RNA; medium: in vitro; concentration: 365 nM; baseline: no-protein control; reading: higher = stronger binding; endpoint: RBNS enrichment (R)
Target: RNA binding protein fox-1 homolog 2, RRM domain, GST-SBP tag (RBFOX2, Homo sapiens, UniProt O43251-10, residues 100-194)
Setting: natural RNA segment, single round, ends assumed
All sequences stand within: GGGAGUUCUACAGUCCGACGAUC … UGGAAUUCUCGGGUGCCAA
Construct (chain): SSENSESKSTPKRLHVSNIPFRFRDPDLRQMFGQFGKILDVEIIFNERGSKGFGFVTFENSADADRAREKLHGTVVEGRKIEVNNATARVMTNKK
UUCUAACCAUUAUUUGGGAACAAAGAGAGUUUUCAUCUUUUUUCAGAUCAAAACCAUUCUGUAAAAUCUUUGUUGUUUAAUUAAAUGUGCCGUUAUUUACCCCUGAUGUU: 0.997
AGCGGGGCAGUCUCGGGUGGCUAGUCAGAGAGAGUGUUUGGGGGUUCCGUGAUGUAGGGUAAGGUGCCUUCUUAUUCUCACUCCACCACCCAAAAGUCAAAAGGUGCCUG: 1.05
AGCCAAGUCAUGAAUCCAGCCUAAAAGCUUGUCCCGGAAAACCAUGGUGCCAUCUGACUUUGAGAGCAUAGAAGUCUUUCCCCAGUCUUCUUCAGGGUCUCCCCCCAACC: 0.435
CAUUGGUAGUUAUUUUGCACCAGCAGUGCCUUUCUCACUGGGGGUACUUGGACCCUCAGAUCUUCUUUUCUAAUAGCCAUUUGCCACCCCAAGUGGUAUGUCGGCCAUUU: 0.449
UUCUCCUCCAGUGGACCUGAAGGACGAGGGAUGGGAUUUCAUGUAACCAAGAGUAUUCCAUUUUUACUAAAGCAGUGUUUUCACCUCAUAUGCUAUGUUAGAAGUCCAGG: 0.334
UUGUGGGUGACCACUCCAGACCCUCCUGCCAAGGAGAGCAUGGGAGAGGGCAGAGUACAAUGGGGUGAGGUCCCAGGCGCAUGGAGCAAGGCUCCCUUUCUGGGGAAGCC: 4.45
CAUAUUCAUAGGGUGUGUAUUUUUUGAGUGUGAGCAUUUAAUUGAAAAUAAGAAAGCUAUGAAGUAAAUGUUAACUUCUCUGUAGCAGCUAAUGCAUAGAGACACUAAAA: 0.598
GCUCUGCUUUUCUGCCUUCAGUUAUCUACAGAACAGCAGGUUUGCCUGAAGUGCAGCCUUCACCAGGGCAUUGUCUCUGCUGGUGUCAGUGACCCACAUUGAUGAGUGGU: 0.459
CAACAGCUACAUUAUAUUUCCUUCUGACACUUGGAAGGUAUUGAAAUUUCUAGAAAUGUAUCCUUCUCACAAAGUAGAGACCAAGAGAAAAACUCAUUGAUUGGGUUUCU: 0.404
UUUUUUAAAGCUUACGUACUUGAAUUUUAUAUCAGGAAGAUGGUUUUUGAGCCUGUUCCUUACCCUUGACUAUAGUUGGUAGUUGGUCUCUUUUUUCCCCCUAGGGGAGG: 0.337
CUCAGUUAUUGGCUUCCAUUUUUUAUGAUCUUUCAACUAUAACAAUUAUGAUAGAAAUCGAUUUAACACAAUCAGUUAUGGGCUUCCAUUUUCAAAUAUCUUUUCAACUG: 0.43
AAGCAAUAUUUCCCUGGAAUUUAAUUCAAAGUUUGUGGCAUACAACCUGAGCCUUUUCUUAUAUAAGACAAGAAUAUGUUCACAUCUUGGUAUGUGGCCAUAUUUAUAGA: 0.803

Excerpt of the above (set 2):
CUGAAG: 0.852
UAGGAC: 0.814
AUCUUA: 0.547
AGACGC: 0.851
GCGUGA: 1.56
GAGAAC: 0.917
GACACC: 0.882
